Experimental data from different studies.
Every numbered part comes from another study and shows a few of its results, in no order.

Block 1
Target: Interferon regulatory factor 5, full length, phosphomimetic (IRF5, Homo sapiens, UniProt Q13568-2, residues 1-514, S451D/S453D/S456D/S462D)
Method: protein-binding microarray
Form: double-stranded DNA, one strand shown
Matrix: in vitro
Tested at: 940 nM top
Setting: 60-bp whole probe
With: salmon DNA 0.4 mg/ml
Relative to: random background probes
Direction: higher = stronger binding
Under “fitted relative affinity”, `GCCTAGCACTTCGGACTGGGGTTTCGGTTAGTGCTAGTCTTGATTCGCTTGACGCTGCTG` is recorded as 5.5 z-score.
For `GCCTAGCACTTAGATTTCGAGTTTCGATTAGTGCTAGTCTTGATTCGCTTGACGCTGCTG`, “fitted relative affinity” read 6.94 z-score.
`GCCTAGCACTGTTATTAAAATTTAATGGGGTGCTAGGTCTTGATTCGCTTGACGCTGCTG`: “fitted relative affinity” 0.184 z-score.
For `GCCTAGCACTCAGCTTTCTTTTTGCAACTGTGCTAGGTCTTGATTCGCTTGACGCTGCTG`, “fitted relative affinity” read 0.809 z-score.

Block 2
Target: Centromere-binding protein 1, full length, His-tagged (CBF1, Saccharomyces cerevisiae, UniProt P17106, residues 1-351)
Chain of UniProt P17106 (whole entry, looked up): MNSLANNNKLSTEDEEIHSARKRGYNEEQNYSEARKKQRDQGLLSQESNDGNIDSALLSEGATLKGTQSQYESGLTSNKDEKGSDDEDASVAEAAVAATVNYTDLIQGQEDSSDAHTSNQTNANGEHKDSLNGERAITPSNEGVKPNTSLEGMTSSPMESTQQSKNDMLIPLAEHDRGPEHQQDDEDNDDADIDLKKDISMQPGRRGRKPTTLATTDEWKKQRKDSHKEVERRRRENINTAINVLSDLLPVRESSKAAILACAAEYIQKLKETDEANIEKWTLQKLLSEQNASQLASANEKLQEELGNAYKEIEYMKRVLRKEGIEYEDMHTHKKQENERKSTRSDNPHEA
Method: competition protein-binding microarray
Form: double-stranded DNA, one strand shown
Matrix: in vitro
Tested at: 2 µM
Setting: whole 60-bp probe, lowest competitor level
With: Pho4 competitor, 0.05 µM
Direction: higher = stronger binding
For `CGTCCTAGTGATTGTCACCTAACTTCCATGAGGAAGGTCTTGATTCGCTTGACGCTGCTG`, the fluorescence intensity was 76.9 a.u.
For `TGATGTTTTGACTGTCATGCTACAAATGTTGGATGAGTCTTGATTCGCTTGACGCTGCTG`, the fluorescence intensity was 87.5 a.u.
With `CGTCCTAGCGATTGACGGGTGGGTGCCATGAGGAAGGTCTTGATTCGCTTGACGCTGCTG` the fluorescence intensity was 61.8 a.u.
With `CTTCTGTAAATTTGGTAAGTGGGTGGACGCGCCCCGGTCTTGATTCGCTTGACGCTGCTG` the fluorescence intensity was 85.6 a.u.

Block 3
Target: Sal-like protein 4, full length isoform A (SALL4, Homo sapiens, UniProt Q9UJQ4, residues 1-1053)
Chain of UniProt Q9UJQ4 (whole entry, looked up): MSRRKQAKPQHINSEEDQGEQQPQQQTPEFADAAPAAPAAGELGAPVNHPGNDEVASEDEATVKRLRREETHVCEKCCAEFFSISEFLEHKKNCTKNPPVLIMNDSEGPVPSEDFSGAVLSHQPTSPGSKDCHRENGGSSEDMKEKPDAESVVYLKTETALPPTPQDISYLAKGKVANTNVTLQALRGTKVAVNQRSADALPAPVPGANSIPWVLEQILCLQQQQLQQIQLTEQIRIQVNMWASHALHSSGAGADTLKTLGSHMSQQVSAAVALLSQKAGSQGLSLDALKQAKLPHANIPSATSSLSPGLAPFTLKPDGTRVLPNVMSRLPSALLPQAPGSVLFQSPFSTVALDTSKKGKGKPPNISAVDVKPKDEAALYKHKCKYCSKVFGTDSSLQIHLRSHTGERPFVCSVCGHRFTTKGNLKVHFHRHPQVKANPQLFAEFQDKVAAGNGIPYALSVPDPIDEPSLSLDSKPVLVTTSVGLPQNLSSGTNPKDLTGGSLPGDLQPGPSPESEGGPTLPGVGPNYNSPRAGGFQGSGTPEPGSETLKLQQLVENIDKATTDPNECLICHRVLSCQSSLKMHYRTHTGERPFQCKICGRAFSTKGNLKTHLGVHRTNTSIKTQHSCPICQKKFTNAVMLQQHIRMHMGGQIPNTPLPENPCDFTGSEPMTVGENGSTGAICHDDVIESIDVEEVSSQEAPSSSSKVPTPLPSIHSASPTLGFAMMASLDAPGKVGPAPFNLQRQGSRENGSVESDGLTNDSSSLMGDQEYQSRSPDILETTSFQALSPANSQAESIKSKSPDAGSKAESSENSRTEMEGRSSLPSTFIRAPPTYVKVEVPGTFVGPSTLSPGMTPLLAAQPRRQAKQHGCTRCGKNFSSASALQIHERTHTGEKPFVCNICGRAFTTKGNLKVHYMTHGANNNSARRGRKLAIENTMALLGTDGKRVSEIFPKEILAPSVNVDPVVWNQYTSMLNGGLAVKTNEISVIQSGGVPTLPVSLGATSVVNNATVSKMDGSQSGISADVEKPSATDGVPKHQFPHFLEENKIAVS
Method: universal PBM
Form: double-stranded DNA, one strand shown
Matrix: in vitro
Tested at: 600 nM
Setting: 8-mer, flanks averaged, mean of replicates
Direction: higher = stronger binding
The E-score of `GGCGTAAA` is reported as -0.0477.
`ACCTGAAT` gave an E-score of 0.208.
`GATCAGTA` gave an E-score of 0.11.
With `GCTTCACA` the E-score was -0.0227.

Other studies, line by line
With `PhoQ, residues 284 288 289 292 302 303 TNSAEL` the fold induction was 17.7 (PhoP, residues 12 14 15 18 19 LHHVQ (Escherichia coli, UniProt P23836); Sort-seq, item: YFP reporter; E. coli; PhoQ-PhoP variant library, with: 10 µM Mg2+; relative to: high Mg2+ state, higher = stronger signaling).

Repeated from above (block 3):
`ACCTGAAT` gave an E-score of 0.208.
`GATCAGTA` gave an E-score of 0.11.
